{"data": "Assay results from different studies", "note": "Each line is one published result; not all experiments were run side by side."}
{"SMILES": "COCc1cc(C(=O)Nc2cc([C@H]3CC[C@@H](OC(=O)NC(C)C)C3)[nH]n2)n(C)n1", "test system": "OVCAR-3 xenograft, NOD/SCID gamma mice, plasma", "conditions": "oral, 15 twice daily, PK/PD study", "Tmax [h]": 7.5}
{"SMILES": "CCc1nc(C(N)=O)c(Nc2ccc(N3CCC(N4CCN(C)CC4)CC3)c(OC)c2)nc1NC1CCOCC1", "test system": "female FVB mice, MATE1 knockout, plasma", "conditions": "oral, 10 mg/kg, single dose", "Tmax [h]": 1}
{"SMILES": "CC(C)(C)c1sc2ncnc(Oc3c(F)cccc3OC(F)(F)F)c2c1-c1ccc(Cl)cc1", "test system": "wild-type mice, plasma", "conditions": "oral, 30 mg/kg", "Tmax [h]": 1}
{"SMILES": "CCN1/C(=C/C(C)=O)Sc2ccc(F)cc21", "test system": "male mice, blood and brain", "conditions": "intraperitoneal", "Tmax [h]": 0.5}
{"SMILES": "CC(C)(C)c1ccc(O)c(CN(Cc2cc(C(C)(C)C)ccc2O)C2CCC(NC(N)=O)CC2)c1 (stereo not shown)", "test system": "C57BL/6 mice, male, plasma and brain", "conditions": "intraperitoneal, 25 mg/kg", "Tmax [h]": "≤ 0.5"}
{"SMILES": "COc1cc([C@@H]2Oc3cc([C@H]4Oc5cc(O)cc(O)c5C(=O)[C@@H]4O)ccc3O[C@H]2CO)ccc1O", "test system": "FVB wild-type mice, plasma", "conditions": "oral gavage, 500 mg/kg silymarin, median", "Tmax [h]": 0.25}
{"SMILES": "NC(=O)c1cc(Oc2ccc(NC(=O)Nc3ccc(Cl)c(C(F)(F)F)c3)c(F)c2)cc[n+]1[O-]", "test system": "Oatp1b2 knockout mice, plasma", "conditions": "oral, 10 mg/kg regorafenib", "Tmax [h]": 7.5}
{"SMILES": "COc1cc([C@H]2Oc3ccc([C@H]4Oc5cc(O)cc(O)c5C(=O)[C@@H]4O)cc3O[C@@H]2CO)ccc1O", "test system": "FVB wild-type mice, plasma", "conditions": "oral gavage, 500 mg/kg silymarin, median", "Tmax [h]": 0.25}
{"SMILES": "Cc1c(C(=O)O)ccc2c3n(nc12)[C@@H]1[C@H](C3)N(CC2CC2)[C@@]2(C(=O)Nc3cc(Cl)ccc32)[C@H]1c1cccc(Cl)c1F", "test system": "female BALB/c nude mice, SJSA-1 xenograft, plasma", "conditions": "oral, 1 mg/kg twice daily, 2 doses, individual animals", "Tmax [h]": 14}
{"SMILES": "C=CC(=O)N1CC2CC(n3nc(-c4ccc(C(=O)Nc5ccccn5)cc4)c4c(N)ncnc43)CC2C1 (stereo not shown)", "test system": "SCID mice, plasma", "conditions": "oral, 15 mg/kg twice daily", "Tmax [h]": 8.5}
{"SMILES": "CN1C[C@H](COc2nccc3c(NCc4ccco4)cc(Cl)nc23)OC1=O", "test system": "C57BL/6 mice, plasma", "conditions": "oral, 10 mg/kg", "Tmax [h]": 0.38}
{"SMILES": "Cc1cc(C)c(CNC(=O)c2cc(Cl)c3c(c2C)O[C@@](C)([C@H]2CC[C@H](N(C)C)CC2)O3)c(=O)[nH]1", "test system": "female CB17 SCID mice, HT-1376 xenograft, plasma", "conditions": "75 mg/kg, day 1", "Tmax [h]": 1.33}
{"SMILES": "CCN1CCN(Cc2ccc(NC(=O)c3ccc(C)c(NC(=O)c4cncc(-c5cccs5)c4)c3)cc2C(F)(F)F)CC1", "test system": "C57BL/6 mice, epithelial lining fluid", "conditions": "intraperitoneal, 15 mg/kg", "Tmax [h]": 0.25}
{"SMILES": "CN[C@@H](C)C(=O)N[C@H]1CN(C(=O)CC(C)C)CC[C@H]2CC[C@@H](C(=O)NC(c3ccccc3)c3ccccc3)N2C1=O", "test system": "SCID mice, MDA-MB-231 xenograft, blood, lung, kidney, liver", "conditions": "oral", "Tmax [h]": 0.25}
{"SMILES": "COc1cc([C@@H]2[C@H]3CO[C@@]4(O)C(=O)[C@@H]2C=C([C@H]2Oc5cc(O)cc(O)c5C(=O)[C@@H]2O)[C@@H]34)ccc1O", "test system": "FVB wild-type mice, plasma", "conditions": "oral gavage, 500 mg/kg silymarin, median", "Tmax [h]": 0.75}
{"SMILES": "CC1(C)CC[C@]2(C(=O)O)CC[C@]3(C)C(=CC[C@@H]4[C@@]5(C)C[C@@H](O)[C@H](OC(=O)/C=C/c6ccc(O)cc6)C(C)(C)[C@@H]5CC[C@]43C)[C@@H]2C1 (relative stereo)", "test system": "C57BL/6 mice, brain", "conditions": "intraperitoneal, 85 µmol/kg single dose", "Tmax [h]": 2}
{"note": "Some of these lines once more:"}
{"SMILES": "COc1cc([C@H]2Oc3ccc([C@H]4Oc5cc(O)cc(O)c5C(=O)[C@@H]4O)cc3O[C@@H]2CO)ccc1O", "test system": "FVB wild-type mice, plasma", "conditions": "oral gavage, 500 mg/kg silymarin, median", "Tmax [h]": 0.25}
{"SMILES": "Cc1c(C(=O)O)ccc2c3n(nc12)[C@@H]1[C@H](C3)N(CC2CC2)[C@@]2(C(=O)Nc3cc(Cl)ccc32)[C@H]1c1cccc(Cl)c1F", "test system": "female BALB/c nude mice, SJSA-1 xenograft, plasma", "conditions": "oral, 1 mg/kg twice daily, 2 doses, individual animals", "Tmax [h]": 14}
